Experimental data from different studies.
A part holds a random share of what one study measured.

Series 1
Target: Histone acetyltransferase KAT6A, winged helix 2, GST fusion (KAT6A, Homo sapiens, UniProt Q92794, residues 85-181)
Method: protein binding microarray
Molecule type: double-stranded DNA, one strand shown
Medium: in vitro
Tested at: not given
Notes: 8-mer, flanks averaged, mean of 2 arrays, mostly near background
Relative to: not given
Direction: higher = stronger binding
Measurement: E-score
Residues (chain): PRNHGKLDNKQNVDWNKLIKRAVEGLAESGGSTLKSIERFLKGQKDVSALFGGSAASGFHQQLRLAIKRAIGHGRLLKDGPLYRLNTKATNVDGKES
Strand = ACACCAGG; value = 0.0144
Strand = GGCAAGAC; value = -0.116
Strand = CTGGCGCA; value = 0.124
Strand = ATAATAGC; value = -0.151

Series 2
Target: Interferon regulatory factor 5, full length, phosphomimetic (IRF5, Homo sapiens, UniProt Q13568-2, residues 1-514, K96S/S451D/S453D/S456D/S462D)
Method: protein-binding microarray
Molecule type: double-stranded DNA, one strand shown
Medium: in vitro
Tested at: 250 nM
Notes: 60-bp whole probe
With: salmon DNA 0.4 mg/ml
Relative to: random background probes
Direction: higher = stronger binding
Measurement: log fluorescence
Strand = GCCTAGCACTTAGGACTGGTGTATCGGTTAGTGCTAGTCTTGATTCGCTTGACGCTGCTG; value = 2.75 z-score
Strand = GCCTAGCACGATGGTATCGGTATCGGGACGTGCTAGGTCTTGATTCGCTTGACGCTGCTG; value = 7.39 z-score
Strand = GCCTAGCACTTAGGTTTCCTTATACTTTAGTGCTAGGTCTTGATTCGCTTGACGCTGCTG; value = 1.2 z-score
Strand = GCCTAGCACGACGATTTGAGTATCGAGACGTGCTAGGTCTTGATTCGCTTGACGCTGCTG; value = 1.82 z-score

Series 3
Target: Ras GTPase-activating protein-binding protein 1, RRM domain (G3BP1, Homo sapiens, UniProt Q13283)
Chain of UniProt Q13283 (whole entry, looked up): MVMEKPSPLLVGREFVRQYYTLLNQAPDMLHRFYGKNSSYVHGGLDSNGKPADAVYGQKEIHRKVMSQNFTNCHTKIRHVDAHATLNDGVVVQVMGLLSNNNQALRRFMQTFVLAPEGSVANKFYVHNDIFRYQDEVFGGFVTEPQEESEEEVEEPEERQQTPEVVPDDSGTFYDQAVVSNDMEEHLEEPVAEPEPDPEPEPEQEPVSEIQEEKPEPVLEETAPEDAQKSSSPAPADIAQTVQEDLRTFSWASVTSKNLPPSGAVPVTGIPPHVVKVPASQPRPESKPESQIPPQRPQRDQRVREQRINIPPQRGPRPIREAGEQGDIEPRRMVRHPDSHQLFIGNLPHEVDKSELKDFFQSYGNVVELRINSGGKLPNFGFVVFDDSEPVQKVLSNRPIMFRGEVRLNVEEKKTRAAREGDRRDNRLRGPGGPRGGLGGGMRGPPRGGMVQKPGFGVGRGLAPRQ
Method: RNA Bind-n-Seq
Molecule type: RNA
Medium: in vitro
Tested at: 1 µM
Notes: whole 134-nt RNA, ends assumed
With: 150 mM KCl
Relative to: input library
Direction: higher = stronger binding
Measurement: log2 enrichment
Strand = GGGAGUUCUACAGUCCGACGAUCUAACUUUAGAGGAGGAUUUGAUGGAUAUGGCAGUGGACGUGGAUUUGGGGAUGGCUAUAAUGGGUAUGGAGGAGGACCUGGAGGUGGCAAUGGAAUUCUCGGGUGUCAAGG; value = -0.79
Strand = GGGAGUUCUACAGUCCGACGAUCACCAUAAAGGUGGGCAUCUUUGGGAAGUGGGGCAAGGGGGGGAUAGGGAGGGGGGUAACACUUUGGGAACAGGUGGUCCCAGGUCGUUUCUGGAAUUCUCGGGUGUCAAGG; value = -0.346
Strand = GGGAGUUCUACAGUCCGACGAUCUCAAGUCCUGUGCUACACAUCGUAUGUACCGAAUCGGGGUUGGGUUGGGUUGGGAAAGUAUUAUGUUACGCCGUUCGGAUCUGCACUUCCUGGAAUUCUCGGGUGUCAAGG; value = 0.591

Further values, each from its own experiment
Substance = PhoQ, residues 284 288 289 292 302 303 SLANIV; target = PhoP, residues 12 14 15 18 19 LHSVW (Escherichia coli, UniProt P23836); assay = Sort-seq, refers to: YFP reporter; test system = E. coli; setting = PhoQ-PhoP variant library, with: 10 µM Mg2+; scale = relative to: high Mg2+ state, higher = stronger signaling; measurement = fold induction; value = 7.32

Some of these lines once more (series 3):
Strand = GGGAGUUCUACAGUCCGACGAUCUCAAGUCCUGUGCUACACAUCGUAUGUACCGAAUCGGGGUUGGGUUGGGUUGGGAAAGUAUUAUGUUACGCCGUUCGGAUCUGCACUUCCUGGAAUUCUCGGGUGUCAAGG; value = 0.591
